# Measured values collected from several papers.
# Each numbered part is a random draw from the data of one study; scales do not carry over between parts.

# Study 1 — technique: RNA Bind-n-Seq; molecule type: RNA; matrix: in vitro; tested at: not given; reference: input RNA pool; direction: higher = stronger binding
# Target: RING finger protein unkempt homolog, zinc fingers 1-6, GST-SBP tag (UNK, Homo sapiens, UniProt Q9C0B0, residues 30-357)
# Chain of UniProt Q9C0B0 (30-357, looked up): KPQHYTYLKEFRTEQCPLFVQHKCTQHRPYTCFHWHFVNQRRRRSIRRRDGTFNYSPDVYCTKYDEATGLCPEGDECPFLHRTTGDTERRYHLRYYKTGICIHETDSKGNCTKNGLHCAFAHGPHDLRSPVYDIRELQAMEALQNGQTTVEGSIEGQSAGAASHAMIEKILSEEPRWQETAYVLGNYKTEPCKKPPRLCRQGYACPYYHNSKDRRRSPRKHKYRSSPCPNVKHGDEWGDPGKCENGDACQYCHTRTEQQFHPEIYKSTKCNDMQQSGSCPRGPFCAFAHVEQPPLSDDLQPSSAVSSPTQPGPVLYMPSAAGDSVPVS
# Setting: RNA with constant flanks, human-mouse chimeric sites, ends assumed
Oligonucleotide,bound/input enrichment [ratio]
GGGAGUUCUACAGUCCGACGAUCUCUUAACGUCCAUUUAAAACUUAUUUUUAUAGCUAGAUAAAUAUUGUUAGUCUUAGACAAUAGCUCACAUUUUUUGAGAAGCAUGCCCUCCCUGUCCAUUGGGCCCAUAACAUGACCCAGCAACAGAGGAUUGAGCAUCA,92.2
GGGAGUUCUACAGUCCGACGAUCAGAAUCUUGGGACUGUUUUACUUAAUUGGUCAUUGGUAGCUUAACAAACAUGGAGAUGAGAUUAGAAAUCUUGACAUCAACAGGUAUUAAGCAGAAAAAACCAUGGCCACGUGUCUCCUGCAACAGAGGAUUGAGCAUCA,0.112
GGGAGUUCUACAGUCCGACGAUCUAAAUUAGCCAGCACCAUUUCUGUUUCUCCCUGGGCUGCGGAAAGCCAGGCGGUUUUAUCUAGCUUAUACAAGGCUGCUGGUGUUCCCUCUUUUUUUCCACGAGGGUGUUUUUGGCUGCACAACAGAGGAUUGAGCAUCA,3.58
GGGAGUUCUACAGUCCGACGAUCAAUUUCCGCAACUGUUUUUUAGACAUUCACAUCAGACUUACAGAGCACCUGGCCACAUUCUAGGUUUGUGUUAUUUCUCAGCUAUGGAUAUGAUCAAAGAGUGAAAAUGCUUAACUAAUGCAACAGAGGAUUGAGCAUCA,0.452
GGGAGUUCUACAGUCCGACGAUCCAGUCCCCGUGUCCCAGUGCAGGACGAGAACAUGGACAACUCAAAGCGGACCCUCUAUUGUAGUUCUUGAUUCUCGAGUGCCAUUAUUAUUGUUUGUCUUUUUUUUUUUUUUUUUAAAGACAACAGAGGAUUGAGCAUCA,1.08
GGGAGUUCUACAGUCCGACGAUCGGCUGCUGGUGACUGUCCUGGAGUGGCUGGAGUUCCCCCGGAACCUGGGCCAGACUAAUUUUAGAAAAUGCCAAGUAGGAAGUUUGUUGAGGGUGAAGUGGUAAGAGGCCGAUGGCCUGGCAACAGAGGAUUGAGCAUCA,6.02
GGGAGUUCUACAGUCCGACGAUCGGCCUGGGACCGUCCUGGGCUAGUACAAAUAGCGGCAGUGGAGGCUCGAGAGGAAAGUUGUUAGUGGGAGGCAGUGGUAGAGGCCGUAUGUACGCUCCCUUUACUCGAUAGAUGUGUUCUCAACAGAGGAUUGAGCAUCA,0.444
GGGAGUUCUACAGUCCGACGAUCGCACUUGGGAAUGUAAUCAGCGCCUUGGGGGACAAGAGCAAGAGAGCCACCCAUGUCCCUUACAGAGACUCUAAGCUGACAAGACUCUUGCAGGAUUCCCUCGGGGGUAACAGCCAAACCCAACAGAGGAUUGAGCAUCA,0.131
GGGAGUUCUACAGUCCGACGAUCUUUGUAUUUAUGCUAAGCACACGUGCUGGUGGUCUGGGCAUCAAUCUUGCAACUGCUGAUGUAGUCAUUUUAUAUGACUCAGAUUGGAAUCCCCAAGUUGAUCUUCAGGCUAUGGACCGUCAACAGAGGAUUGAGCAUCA,0.123
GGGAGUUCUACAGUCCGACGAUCGGGGAGAAACCUUACGAGUGUGUGCAGUGUGGGAAAUCCUACAGUCAAAGCUCAAAUCUCUUCAGACAUCAGAGACGACACAAUGCAGAAAAACUUCUGAAUGUUGUGAAGGUUUAAGAACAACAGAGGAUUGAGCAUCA,0.0811
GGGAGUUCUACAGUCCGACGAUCCUGAGGAUACCACUGAAGAGACCUUAAAAGAAUCAUUUUGACGGCUCGUUCGUGCAAGAAUAGUCACUGAUCGGGAAACUGGUUCUUUCCAAAGGGUUGGUUUUGUAGACUUUAAUAGUGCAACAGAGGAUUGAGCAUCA,0.551

# Study 2 — technique: protein-binding microarray; molecule type: double-stranded DNA, one strand shown; matrix: in vitro; tested at: 2540 nM top; setting: 60-bp whole probe; added: salmon DNA 0.4 mg/ml; reference: random background probes; direction: higher = stronger binding; shared flanks, not repeated: GCCTAGCAC … GTCTTGATTCGCTTGACGCTGCTG
# Target: Interferon regulatory factor 3, full length, phosphomimetic (IRF3, Homo sapiens, UniProt Q14653, residues 1-427, S386D/S396D/S398D/S402D/T404D/S405D)
# Residues (chain): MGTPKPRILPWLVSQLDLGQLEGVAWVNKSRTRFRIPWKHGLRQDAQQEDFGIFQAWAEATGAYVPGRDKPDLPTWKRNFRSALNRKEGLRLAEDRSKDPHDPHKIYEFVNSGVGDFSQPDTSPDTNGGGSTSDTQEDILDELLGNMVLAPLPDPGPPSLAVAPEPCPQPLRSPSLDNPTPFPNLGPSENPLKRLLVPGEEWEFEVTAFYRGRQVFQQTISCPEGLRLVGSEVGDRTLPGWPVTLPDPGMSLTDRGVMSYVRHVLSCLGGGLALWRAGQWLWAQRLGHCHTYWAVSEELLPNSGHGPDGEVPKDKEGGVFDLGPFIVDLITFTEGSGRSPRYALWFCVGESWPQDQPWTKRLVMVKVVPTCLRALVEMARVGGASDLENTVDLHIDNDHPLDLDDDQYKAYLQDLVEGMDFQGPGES
Oligonucleotide,fitted relative affinity [z-score]
TTAGATTTCGGGAATGGATTAGTGCTA,0.831
TTAGAACTGAGGATCGATTAGTGCTAG,-0.321
GACGGTTTCGGACTGGGGACGTGCTAG,4.48
CAAAAATGATTGGTTGAACAGTGCTAG,0.259
TTAGATTTCGGGTATCGTTTAGTGCTA,1.75
CTTCATGTGCCTTTATATACGTGCTAG,0.677
GACGGACTGGCGACTGGGGACGTGCTA,-0.965
GACGGTATGCTTCTCCTGACGTGCTAG,0.116
TTAGAGCTGAGACTGGATTAGTGCTAG,-0.807
TCATTTCCCACTTTCACACTGTGCTAG,3.29
CTTCACATATAATTTTGTCATGTGCTA,0.525
TGGGTAATGCTTCTGTATTCGTGCTAG,-0.579
TTAGGTATCGATTTCGGTTAGTGCTAG,4.33
TTCGGACTGGACACTGGGTTAGTGCTA,-0.548
TCATTTTTATTTTCTGAACTGTGCTAG,3.21
TCATAATTCACTATTACACTGTGCTAG,1.06
TTAGATATCAGTTTCGATAAGTGCTAG,4.66
GACGATATCGGGTTGCGAGACGTGCTA,0.304
GACGATATCGGTACTGGAGACGTGCTA,0.888
TACGGTATCCTTATCCTGACGTGCTAG,4.88
TCATTAATGCTTCTGGAACTGTGCTAG,-0.0404
TCCCTATTATATATATCATAGTGCTAG,1.84
TTAGGTTTCCTATTGCTTTAGTGCTAG,5.94
TCATCTCTCAAAAGTCACACTGTGCTA,1.04

# Study 3 — technique: protein binding microarray; molecule type: double-stranded DNA, one strand shown; matrix: in vitro; tested at: not given; reference: not given; direction: higher = stronger binding
# Target: Histone acetyltransferase KAT6A, both winged helices, GST fusion (KAT6A, Homo sapiens, UniProt Q92794, residues 1-181)
# Setting: 8-mer, flanks averaged, mean of 2 arrays, mostly near background
# Construct (chain): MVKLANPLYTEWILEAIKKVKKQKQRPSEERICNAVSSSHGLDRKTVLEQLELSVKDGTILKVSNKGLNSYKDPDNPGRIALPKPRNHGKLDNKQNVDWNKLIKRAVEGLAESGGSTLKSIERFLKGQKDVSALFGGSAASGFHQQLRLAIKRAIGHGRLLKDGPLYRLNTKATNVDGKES
Oligonucleotide,E-score
TAGAATCA,-0.21
ACCACCTG,-0.187
TCCTTGAA,-0.0524
AATACGCT,0.0734
CCAAATAG,-0.185
GTAGTACA,-0.112
ACGCTCAG,0.098
AACGCGGC,0.332
GAATAGAC,-0.0932
AGGGTGCA,-0.247
AATGAAGA,0.0637
AACCCGGC,0.296
ATGGCTTG,-0.0466
GCATGCCC,0.104
ACAGACCA,-0.164
AAGATGGG,-0.0751
ACGCACCC,0.153
AGTACAAT,0.0169
CCGAAGAG,0.0804
CTCCGACC,0.0839
ATGCGTTC,0.117
ACCGCCTC,0.185
CTGCTTGC,0.0069
AAGCGGGC,0.116
GTGGCGCA,0.194

# Study 4 — technique: RNA Bind-n-Seq; molecule type: RNA; matrix: in vitro; tested at: 1 µM; setting: whole 134-nt RNA, ends assumed; added: 150 mM KCl; reference: input library; direction: higher = stronger binding
# Target: Ras GTPase-activating protein-binding protein 1, C-terminal RGG region (G3BP1, Homo sapiens, UniProt Q13283)
# Chain of UniProt Q13283 (whole entry, looked up): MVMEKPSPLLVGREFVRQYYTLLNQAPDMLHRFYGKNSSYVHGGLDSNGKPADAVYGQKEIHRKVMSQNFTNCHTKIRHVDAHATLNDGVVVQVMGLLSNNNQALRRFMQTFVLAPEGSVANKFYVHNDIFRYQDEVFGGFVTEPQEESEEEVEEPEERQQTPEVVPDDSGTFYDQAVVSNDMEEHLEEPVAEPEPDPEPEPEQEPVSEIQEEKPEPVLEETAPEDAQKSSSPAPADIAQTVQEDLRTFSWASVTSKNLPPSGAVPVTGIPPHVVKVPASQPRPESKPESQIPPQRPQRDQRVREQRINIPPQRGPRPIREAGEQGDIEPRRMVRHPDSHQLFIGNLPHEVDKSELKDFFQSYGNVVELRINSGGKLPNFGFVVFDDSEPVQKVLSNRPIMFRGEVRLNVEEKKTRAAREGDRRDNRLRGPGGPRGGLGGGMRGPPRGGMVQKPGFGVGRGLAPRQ
Oligonucleotide,log2 enrichment
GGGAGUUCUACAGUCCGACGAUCCACAGACAACAAGCACCCACACAGACACAGAGGGAAGGGGUUGGGAUGGGGACAGGGUGCACAGCAGGGCGGGGUAGGACCCCAGCCCCUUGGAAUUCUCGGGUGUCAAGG,-0.00388
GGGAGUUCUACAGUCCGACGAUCUGGCCCUGGUGGCAUGCGAGGAGGAAGAGGUGGCCUCAUGGAUCGUGGUGGUCCCGGUGGAAUGUUCAGAGGUGGCCGUGGUGGAGACAGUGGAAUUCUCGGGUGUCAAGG,1.84
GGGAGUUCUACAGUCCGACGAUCAAUGUGUCCUCCCUGUCCAAAUUGGGAAUGACUUAAUGUCAAUUUGUUUGUUGGUUGUUUUAAUAAUACUUCCUUAUGUAGCCAUUAAGAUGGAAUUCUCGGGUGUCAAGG,-0.762
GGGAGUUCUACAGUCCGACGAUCUAUGCCACGCCCUUUGAGGACUCGAAGAUCAUGGUCUCUGACUUUGGACUCUCCAAAAUCCAGGCUGGGAACAUGCUAGGCACCGCCUGUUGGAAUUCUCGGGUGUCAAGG,-0.389
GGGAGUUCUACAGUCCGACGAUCGUCCUGUGCUACACAUCGUAUGUACCGAAUCGGGGCCCCCGGCCCCCGGGGCCCCCGGGAAAGUAUUAUGUUACGCCGUUCGGAUCUGCAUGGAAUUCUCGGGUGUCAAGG,-2.25
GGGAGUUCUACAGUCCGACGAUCUGUGCUACACAUCGUAUGUACCGAAUCGGGGAAAAAAAGGGGAAAAAAAGGGGAAAAAAAGGAAAGUAUUAUGUUACGCCGUUCGGAUCUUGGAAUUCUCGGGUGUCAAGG,-0.817
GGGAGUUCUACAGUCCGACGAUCACCAUGCAGGUGGGCAUCUUGGGGAAGUGGGGCAAGGGGGGGAUAGGGAGGGGGGUAACACUUUGGGAACAGGUGGUCCCAGGUCGUUUCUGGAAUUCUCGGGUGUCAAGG,-1.17
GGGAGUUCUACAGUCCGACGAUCCCUCAAGUCCUGUGCUACACAUCGUAUGUACCGAAUCGGUGGGUGGGGUGGGAAAGUAUUAUGUUACGCCGUUCGGAUCUGCACUUCCAGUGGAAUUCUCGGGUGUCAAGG,0.971
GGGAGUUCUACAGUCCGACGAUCCACAGACAACACGCACCCACACAGACACAGAGGGAAGGGGUUGGGAAAAGGACAGGGUGCACAGCAGGGCGGGGUAGGACCCCAGCCCCUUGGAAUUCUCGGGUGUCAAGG,-0.0928
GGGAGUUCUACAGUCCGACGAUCCACAGACAUCACGCACCCACACAGACACAGAGGGAAGGGGUUGGGAUGGGGACAGGGUGCACAGCAGGGCGGGGUAGGACCCCAGCCCCUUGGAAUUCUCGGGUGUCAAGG,-0.485

# For quick reference, copied from above (study 3):
Oligonucleotide,E-score
GTGGCGCA,0.194
ACGCACCC,0.153
ACGCTCAG,0.098
AATGAAGA,0.0637
TAGAATCA,-0.21
AACCCGGC,0.296
ATGCGTTC,0.117
AGGGTGCA,-0.247
CCAAATAG,-0.185
TCCTTGAA,-0.0524
ACCGCCTC,0.185
CTCCGACC,0.0839
